Published values pooled from the literature.
Each numbered part is a random draw from the data of one study; scales do not carry over between parts.

Sample 1 — technique: protein-binding microarray; form: double-stranded DNA, one strand shown; sample: in vitro; concentration: 2540 nM top; setting: 60-bp whole probe; together with: salmon DNA 0.4 mg/ml; relative to: random background probes; direction: higher = stronger binding; constant ends, left off below: GCCTAGCAC … GTCTTGATTCGCTTGACGCTGCTG
Target: Interferon regulatory factor 3, full length, phosphomimetic (IRF3, Homo sapiens, UniProt Q14653, residues 1-427, S386D/S396D/S398D/S402D/T404D/S405D)
Target sequence (chain): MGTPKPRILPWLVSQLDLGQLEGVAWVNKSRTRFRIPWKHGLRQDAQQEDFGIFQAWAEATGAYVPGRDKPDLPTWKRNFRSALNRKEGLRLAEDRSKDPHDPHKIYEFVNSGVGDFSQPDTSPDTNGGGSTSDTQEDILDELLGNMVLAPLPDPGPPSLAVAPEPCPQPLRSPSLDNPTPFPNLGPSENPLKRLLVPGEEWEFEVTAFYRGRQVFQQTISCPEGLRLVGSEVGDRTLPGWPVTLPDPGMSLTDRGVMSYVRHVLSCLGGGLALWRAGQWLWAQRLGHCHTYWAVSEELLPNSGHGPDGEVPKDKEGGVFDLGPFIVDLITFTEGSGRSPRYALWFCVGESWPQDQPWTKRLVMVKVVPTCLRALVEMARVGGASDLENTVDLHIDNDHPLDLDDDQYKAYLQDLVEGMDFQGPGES
Strand	fitted relative affinity [z-score]
TAATGCTTCTGTATTCATGAGTGCTAG	0.167
TTAGATTTAAGACTGGATTAGTGCTAG	-0.331
GACGGACTCGGGTATCGGGACGTGCTA	-0.151
AACGGACTGGGTTTCGGGACGTGCTAG	1.17
TTAGGATTCGACACTGGGTTAGTGCTA	-0.242
TTAGATATCGGGACTGGATGAGTGCTA	-0.0517
GACGCTATCAGTATCGAGACGTGCTAG	1.17
GACGAATTCGGGTTTCGAGACGTGCTA	1.56

Sample 2 — technique: RNA Bind-n-Seq; form: RNA; sample: in vitro; concentration: 200 nM; setting: whole 134-nt RNA, ends assumed; together with: 150 mM KCl; relative to: input library; direction: higher = stronger binding
Target: Fragile X messenger ribonucleoprotein 1, C-terminal low-complexity region (Fmr1, Mus musculus, UniProt P35922)
Constant ends, left off below: GGGAGUUCUACAGUCCGACGAUC … UGGAAUUCUCGGGUGUCAAGG
Strand	log2 enrichment
CUUCUUGCAUGCUCGGCUCCGGACAGCUACGCUUCGGCAUGACGCAGACGGGCAGGCCACCCUGUUGAACCUCCUGCUGCGGAAUUACCU	-0.394
UGCCUGUAUGGAGUGGAAUGAAUGUUGCUGGUGUCUCUCUGAAGACUCUGCACCCAGAUUUAGGGACUGAUAAAGAUAAGGAACAGUGGA	-0.552
AGUCCUGUGCUACACAUCGUAUGUACCGAAUCGGGUUUUUGGGAAAAAGGGAAAGGGAAAGUAUUAUGUUACGCCGUUCGGAUCUGCACU	-0.0179
UUGGGUCCAGACUGCGCCACAGCCUCUCGGGAGACGUGGGCCCUCGGAACCUUUUUAGUGCCGGACUCCGGGCCGCAGGCAGUCCCGCGG	-2.29
CCUCAAGUCCUGUGCUACACAUCGUAUGUACCGAAUCGGGGUGGGGUGGUGGAAAGUAUUAUGUUACGCCGUUCGGAUCUGCACUUCCAG	0.545
UUAGAAGAAUUUGGAAGGCCUUAAAUAUAGUAGCUUAGUUUGAAAAAUGUGAAGGACUUUCGUAACGGAAGUAAUUCAAGAUCAAGAGUA	-2.31
AGUCCUGUGCUACACAUCGUAUGUACCGAAUCGGCCCCCCGGCCCCCCGGCCCCCCGGAAAGUAUUAUGUUACGCCGUUCGGAUCUGCAC	0.227
CCUCAAGUCCUGUGCUACACAUCGUAUGUACCGAAUCGGGCGGCGGGGCGGGAAAGUAUUAUGUUACGCCGUUCGGAUCUGCACUUCCAG	1.07

Sample 3 — observed: enzyme activity; mode: inhibitor; concentration: 20 µM
Target: Replicase polyprotein 1ab, polymerase (rep, Severe acute respiratory syndrome coronavirus 2, UniProt P0DTD1)
Structure (SMILES)	inhibition [%]
N#Cc1ccc(COC[C@H]2O[C@@H](n3c(NCc4ccc(Cl)c(Cl)c4)nc4c(N)ncnc43)[C@H](O)[C@@H]2O)cc1	0.24
COc1ccc(S(=O)(=O)N2CCC[C@H]2C(=O)Nc2cc(C)cc(C)c2)cc1	0.77
Oc1cc2c(cc1O)[C@@H]1c3ccc(O)c(O)c3OC[C@]1(O)C2	5.29
COc1ccc2cc1Oc1ccc(cc1)C[C@H]1c3cc(c(OC)cc3CCN1C)Oc1c(OC)c(OC)cc3c1[C@H](C2)N(C)CC3	-0.64
N=C(N)NCCCCN	-11.9
O=C(O)CCc1ccc(NCc2cccc(Oc3ccccc3)c2)cc1	-1.8
CCC[C@@H]1CC2=CC(=O)CC[C@]2(C)[C@H]2CC[C@@]3(C)[C@@H](CC[C@@]3(O)CCC(=O)O)[C@H]12	4.44
O=C(O)c1ccc[n+]([O-])c1	3.52
O=C(O)c1cccc(-c2noc(-c3ccccc3F)n2)c1	-7.89
COc1cnc(-c2ccc(Cn3c(CC(C)(C)C(=O)O)c(SC(C)(C)C)c4cc(OC[C@@H]5Cc6ccccc6N5C(C)=O)ccc43)cc2)nc1	-3.77
COC(=O)Nc1ccc(-c2nc(N3CCOCC3)c3cnn(C4CCN(C(=O)OC)CC4)c3n2)cc1	-2.73
CNC(=O)c1ccc(-c2cnc3ncc(Cc4ccc5ncccc5c4)n3n2)cc1F	-2.07
COc1ccc2cc1Oc1ccc(cc1)C[C@H]1c3c(cc4c(c3Oc3cc5c(cc3OC)CCN(C)[C@@H]5C2)OCO4)CCN1C	0.69
CCCS(=O)(=O)Nc1ccc(F)c(C(=O)c2c[nH]c3ncc(-c4ccc(Cl)cc4)cc23)c1F	3.22
Nc1nc(NCCc2ccc(O)cc2)nc2nc(-c3ccco3)nn12	5.07
CCCC(CCC)C(=O)NCC(N)=O	3.68
CC[C@]1(O)C[C@@H]2CN(CCc3c([nH]c4ccccc34)[C@@](C(=O)OC)(c3cc4c(cc3OC)N(C)[C@H]3[C@@](O)(C(N)=O)[C@H](O)[C@]5(CC)C=CCN6CC[C@]43[C@@H]65)C2)C1	1.61
CCOP(=S)(OCC)Oc1cc(C)nc(C(C)C)n1	-6.75
Brc1ccc(NC2C3CC4CC(C3)CC2C4)cc1 (stereo not shown)	-2.15
Cc1ccccc1CN1C(=O)C2=C(CCN(Cc3ccccc3)C2)N2CCN=C12	-0.9
NS(=O)(=O)c1cc2c(cc1Cl)NC(C1CC3C=CC1C3)NS2(=O)=O (stereo not shown)	-6.21
CN1CCC(=C2c3ccccc3CC(=O)c3sccc32)CC1	-1.7
CCCN1CCCC[C@H]1C(=O)Nc1c(C)cccc1C	-4.09
COC1=C[C@@H]2[C@@H]3Cc4ccc(OC)c(O)c4[C@]2(CCN3C)CC1=O	-3.11
COc1ccc(NS(=O)(=O)c2ccc(N)cc2)nn1	36.4

Sample 4 — observed: enzyme activity; mode: inhibitor; concentration: 20 µM; setting: hit confirmation
Target: Replicase polyprotein 1ab, main protease (rep, Severe acute respiratory syndrome coronavirus 2, UniProt P0DTD1)
SMILES	inhibition [%]
CCCCCCCCCCCCCCCC[N+](C)(C)Cc1ccccc1	28.5
CCCc1cc(C(=N)S)ccn1	11.1
CN(C)[C@@H]1C(=O)C(C(N)=O)C(=O)[C@@]2(O)C(=O)C3C(=O)c4c(O)cccc4[C@@](C)(O)[C@H]3[C@H](O)[C@@H]12 (stereo partly shown)	33.6

Sample 5 — technique: RNA Bind-n-Seq; form: RNA; sample: in vitro; concentration: 365 nM; relative to: no-protein control; direction: higher = stronger binding
Target: RNA binding protein fox-1 homolog 2, RRM domain, GST-SBP tag (RBFOX2, Homo sapiens, UniProt O43251-10, residues 100-194)
Setting: natural RNA segment, single round, ends assumed
Constant ends, left off below: GGGAGUUCUACAGUCCGACGAUC … UGGAAUUCUCGGGUGCCAA
Residues (chain): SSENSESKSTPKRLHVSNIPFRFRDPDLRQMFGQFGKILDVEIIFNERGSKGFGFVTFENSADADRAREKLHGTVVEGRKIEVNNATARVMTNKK
Strand	RBNS enrichment (R)
AGAGGAGGACGUGCAGCAUGGUGGGAAACGGGGACACCACCUCCCAGGACGACUGUGUCAGCAAAGAGCGCAGCUCCUCCAGGUGACCCAGCAAGGCUGUUGUCUGUAUG	0.62
UCCCAGCUCCACUGGCCCAAGUCUGAGCCGGAGGCCCUUGUUUUGGGGGCGGGGGGAGAGUUGGAUGUGAUUGCCCUUGAAGAACAAGGCUGACCUGAGAGGUUCCUGGC	0.462
UGUAUUGCCAGACAGCUCUCUUUUGGUUCCCAUUCCAAAUGUGCUGCUGUCCUUCUUUGCAUUUCACAAUAUCAAAGAAACCACCACCCUUCUUCCUAACAGCAUUUUAU	1.14
CAAUGUUGUGUAUAAAUGGGACACUUUGCCCUCUACCACCUCCCCUUUGGUUGUAUGAUUUUCUUCUUUUUUAAUGACUCCUGGAAGCAGUGCCCCUUCAGAGCUGGCUG	0.587
AAAACAAAACAUAUUAAUGGUAUUGAAAUGUGUUAGUAGUCUGGCUGUGUGCCCAAAAUUCUGUUUCGCAGCAAAAGUGAAGACCUGUAUGUAAAGAAAGUAUAACAAUU	1.48
UGAAUCCCAAAGGCCACAUCCAAGACAGGCAAUAAUGAGCAGAGUUUACAGCUCCUUUAAUAAAAUGUGUCAGUAAUUUUAAGGUUUAUAGUUCCCUCAACACAAUUGCU	0.392
UUGCCACCUGGUACCUUAAACUCGGUGGCUAUUCCCAUUGCUGUGUUUUAUUUGUAUAGUCUUACGUUGAUAGACAGCCCCACUGGAAUUGACCAAUUGUCUACACAGCG	0.322
UUUUGCAUUGAACAUUAAUGUAGCGGAUAUAAUUUGAUGAUUAUACUUCAUUAGAUUUAAUUUCUAGGCCAAGAUGUUACUUUUUAAAGUGCAGUUUAAGGUUCAGGCAU	0.327

Sample 6 — cell line: HEK-293T/ACE2; concentration: concentration not given; time: 16 (unit not given); relative to: vehicle
Structure (SMILES)	viability [%]
Cc1ccc(=O)n(-c2ccccc2)c1	98.2
Nc1nc(F)nc2c1ncn2[C@@H]1O[C@H](CO)[C@@H](O)[C@@H]1O	100
Nc1nc(F)nc2c1ncn2[C@@H]1O[C@H](COP(=O)(O)O)[C@@H](O)[C@@H]1O	100

Repeated from above (sample 3):
Structure (SMILES)	inhibition [%]
NS(=O)(=O)c1cc2c(cc1Cl)NC(C1CC3C=CC1C3)NS2(=O)=O (stereo not shown)	-6.21
CC[C@]1(O)C[C@@H]2CN(CCc3c([nH]c4ccccc34)[C@@](C(=O)OC)(c3cc4c(cc3OC)N(C)[C@H]3[C@@](O)(C(N)=O)[C@H](O)[C@]5(CC)C=CCN6CC[C@]43[C@@H]65)C2)C1	1.61
CN1CCC(=C2c3ccccc3CC(=O)c3sccc32)CC1	-1.7
O=C(O)CCc1ccc(NCc2cccc(Oc3ccccc3)c2)cc1	-1.8
COc1cnc(-c2ccc(Cn3c(CC(C)(C)C(=O)O)c(SC(C)(C)C)c4cc(OC[C@@H]5Cc6ccccc6N5C(C)=O)ccc43)cc2)nc1	-3.77
COC1=C[C@@H]2[C@@H]3Cc4ccc(OC)c(O)c4[C@]2(CCN3C)CC1=O	-3.11
Cc1ccccc1CN1C(=O)C2=C(CCN(Cc3ccccc3)C2)N2CCN=C12	-0.9
CCCN1CCCC[C@H]1C(=O)Nc1c(C)cccc1C	-4.09
COc1ccc2cc1Oc1ccc(cc1)C[C@H]1c3c(cc4c(c3Oc3cc5c(cc3OC)CCN(C)[C@@H]5C2)OCO4)CCN1C	0.69
